Published values of several laboratories.
Protocols differ between the studies behind these lines. ± marks the error that the study gave.
U2AF2: U2AF2 148-342 (Homo sapiens, UniProt P26368)
Sequence of UniProt P26368 (whole entry, looked up): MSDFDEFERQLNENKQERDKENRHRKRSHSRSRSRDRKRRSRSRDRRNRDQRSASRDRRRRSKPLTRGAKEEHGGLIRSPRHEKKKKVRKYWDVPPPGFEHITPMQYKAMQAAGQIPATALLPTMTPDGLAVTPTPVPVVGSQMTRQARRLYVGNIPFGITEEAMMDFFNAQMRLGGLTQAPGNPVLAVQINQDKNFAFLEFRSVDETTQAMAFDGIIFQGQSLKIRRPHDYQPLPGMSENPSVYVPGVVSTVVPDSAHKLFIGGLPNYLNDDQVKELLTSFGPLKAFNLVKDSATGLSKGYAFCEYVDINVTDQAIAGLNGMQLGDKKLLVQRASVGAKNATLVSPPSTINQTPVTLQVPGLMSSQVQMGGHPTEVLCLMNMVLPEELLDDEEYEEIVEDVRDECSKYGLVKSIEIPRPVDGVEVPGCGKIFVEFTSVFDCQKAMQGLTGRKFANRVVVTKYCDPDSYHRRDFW
B1: DLL4 27-400 G28S/F107L/I143F/H194Y/L206P/N257P/T271L/F280Y/S301R/Q305P (Homo sapiens, UniProt Q9NR61); chain SSVFQLQLQEFINERGVLASGRPCEPGCRTFFRVCLKHFQAVVSPGPCTFGTVSTPVLGTNSFAVRDDSSGGGRNPLQLPLNFTWPGTFSLIIEAWHAPGDDLRPEALPPDALISKFAIQGSLAVGQNWLLDEQTSTLTRLRYSYRVICSDNYYGDNCSRLCKKRNDYFGHYVCQPDGNPSCLPGWTGEYCQQPICLSGCHEQNGYCSKPAECLCRPGWQGRLCNECIPHPGCRHGTCSTPWQCLCDEGWGGLYCDQDLNYCTHHSPCKNGATCRNSGPRSYTCTCRPGYTGVDCELELSECDSNPCRNGGSCKDQEDGYHCLCPPGYYGLHCEHSTLSCADSPCFNGGSCRERNQGANYACECPPNFTGSNCE
B2: TIMP2 27-153 (Homo sapiens, UniProt P16035); sequence looked up; chain CSCSPVHPQQAFCNADVVIRAKAVSEKEVDSGNDIYGNPIKRIQYEIKQIKMFKGPEKDIEFIYTAPSSAVCGVSLDVGGKKEYLIAGKAEGDGKMHITLCDFIVPWDTLSTTQKKSLNHRYQMGCE
B3: human AIMP1; sequence looked up; chain ANNDAVLKRLEQKGAEADQIIEYLKQQVSLLKEKAILQATLREEKKLRVENAKLKKEIEELKQELIQAEIQNGVKQIPFPSGTPLHANSMVSENVIQSTAVTTVSSGTKEQIKGGTGDEKKAKEKIEKKGEKKEKKQQSIAGSADSKPIDVSRLDLRIGCIITARKHPDADSLYVEEVDVGEIAPRTVVSGLVNHVPLEQMQNRMVILLCNLKPAKMRGVLSQAMVMCASSPEKIEILAPPNGSVPGDRITFDAFPGEPDKELNPKKKIWEQIQPDLHTNDECVATYKGVPFEVKGKGVCRAQTMSNSGIK
Sequence of UniProt P29055 (whole entry, looked up): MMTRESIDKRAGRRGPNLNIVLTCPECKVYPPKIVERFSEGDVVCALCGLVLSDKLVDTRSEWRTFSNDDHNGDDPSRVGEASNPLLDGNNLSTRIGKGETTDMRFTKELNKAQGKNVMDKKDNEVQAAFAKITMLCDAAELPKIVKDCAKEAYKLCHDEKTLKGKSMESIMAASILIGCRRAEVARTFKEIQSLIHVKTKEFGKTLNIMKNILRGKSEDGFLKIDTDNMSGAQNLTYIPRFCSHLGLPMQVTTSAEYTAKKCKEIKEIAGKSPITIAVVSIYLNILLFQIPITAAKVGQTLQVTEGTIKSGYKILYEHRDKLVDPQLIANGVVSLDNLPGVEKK
Sequence of UniProt Q9SV55 (whole entry, looked up): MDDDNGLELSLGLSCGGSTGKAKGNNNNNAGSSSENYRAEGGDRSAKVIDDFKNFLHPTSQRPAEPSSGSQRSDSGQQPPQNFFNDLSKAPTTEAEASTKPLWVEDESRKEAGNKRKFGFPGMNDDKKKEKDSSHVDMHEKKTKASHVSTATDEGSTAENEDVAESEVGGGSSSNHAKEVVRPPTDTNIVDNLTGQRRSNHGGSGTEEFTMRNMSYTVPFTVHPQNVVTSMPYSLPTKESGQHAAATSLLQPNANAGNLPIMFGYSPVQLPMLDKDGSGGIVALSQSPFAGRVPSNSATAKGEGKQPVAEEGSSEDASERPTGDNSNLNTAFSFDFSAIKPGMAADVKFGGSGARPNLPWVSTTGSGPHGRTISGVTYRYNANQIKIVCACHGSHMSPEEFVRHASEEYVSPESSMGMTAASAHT
Sequence of UniProt Q16181 (whole entry, looked up): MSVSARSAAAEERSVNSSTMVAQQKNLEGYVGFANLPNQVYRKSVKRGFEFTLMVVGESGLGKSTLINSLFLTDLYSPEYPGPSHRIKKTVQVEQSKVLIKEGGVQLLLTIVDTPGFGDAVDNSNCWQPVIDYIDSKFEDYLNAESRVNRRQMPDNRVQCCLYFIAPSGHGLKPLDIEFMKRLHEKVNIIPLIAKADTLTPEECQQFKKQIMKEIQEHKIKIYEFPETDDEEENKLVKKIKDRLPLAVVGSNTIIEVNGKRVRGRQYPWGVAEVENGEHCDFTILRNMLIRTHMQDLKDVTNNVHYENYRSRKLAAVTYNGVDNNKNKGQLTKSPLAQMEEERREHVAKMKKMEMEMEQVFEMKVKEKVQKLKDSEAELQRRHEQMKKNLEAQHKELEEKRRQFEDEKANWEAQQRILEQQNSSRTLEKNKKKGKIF
Sequence of UniProt P08254 (whole entry, looked up): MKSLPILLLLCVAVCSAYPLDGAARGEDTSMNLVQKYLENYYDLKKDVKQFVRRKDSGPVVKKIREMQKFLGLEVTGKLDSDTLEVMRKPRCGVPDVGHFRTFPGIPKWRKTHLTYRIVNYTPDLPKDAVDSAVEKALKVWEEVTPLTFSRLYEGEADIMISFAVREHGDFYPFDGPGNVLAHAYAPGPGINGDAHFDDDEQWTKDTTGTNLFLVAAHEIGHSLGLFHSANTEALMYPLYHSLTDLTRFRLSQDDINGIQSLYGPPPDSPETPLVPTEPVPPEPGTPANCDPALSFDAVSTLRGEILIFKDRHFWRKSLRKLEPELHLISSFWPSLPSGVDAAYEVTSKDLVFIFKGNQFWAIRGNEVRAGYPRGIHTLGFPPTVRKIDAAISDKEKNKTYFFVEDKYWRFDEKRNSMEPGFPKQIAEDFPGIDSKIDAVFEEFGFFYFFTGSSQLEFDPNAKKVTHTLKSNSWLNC
Sequence of UniProt Q96NY8 (whole entry, looked up): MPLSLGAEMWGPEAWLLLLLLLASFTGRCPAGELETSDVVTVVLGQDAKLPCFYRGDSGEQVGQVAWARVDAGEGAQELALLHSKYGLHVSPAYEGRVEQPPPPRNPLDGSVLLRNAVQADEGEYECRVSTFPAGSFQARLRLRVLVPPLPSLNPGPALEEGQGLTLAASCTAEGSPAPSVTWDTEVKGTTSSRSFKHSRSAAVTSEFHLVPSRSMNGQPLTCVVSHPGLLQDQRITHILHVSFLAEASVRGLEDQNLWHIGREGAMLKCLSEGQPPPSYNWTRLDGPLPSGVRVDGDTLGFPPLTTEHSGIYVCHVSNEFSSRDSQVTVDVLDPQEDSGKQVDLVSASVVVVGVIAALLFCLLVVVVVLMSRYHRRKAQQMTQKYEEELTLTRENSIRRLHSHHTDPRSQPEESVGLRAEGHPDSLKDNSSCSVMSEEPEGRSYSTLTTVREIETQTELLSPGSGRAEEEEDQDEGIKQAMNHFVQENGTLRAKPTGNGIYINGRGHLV
Sequence of UniProt P33032 (whole entry, looked up): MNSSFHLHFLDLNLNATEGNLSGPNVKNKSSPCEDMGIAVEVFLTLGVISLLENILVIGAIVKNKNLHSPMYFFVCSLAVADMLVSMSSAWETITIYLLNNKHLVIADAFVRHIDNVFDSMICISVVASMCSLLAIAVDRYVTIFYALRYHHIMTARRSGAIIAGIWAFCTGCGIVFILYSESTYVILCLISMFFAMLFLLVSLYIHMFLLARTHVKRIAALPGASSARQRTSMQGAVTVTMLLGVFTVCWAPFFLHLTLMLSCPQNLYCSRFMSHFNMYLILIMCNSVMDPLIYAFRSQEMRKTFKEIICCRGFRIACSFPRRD
Sequence of UniProt P42208 (whole entry, looked up): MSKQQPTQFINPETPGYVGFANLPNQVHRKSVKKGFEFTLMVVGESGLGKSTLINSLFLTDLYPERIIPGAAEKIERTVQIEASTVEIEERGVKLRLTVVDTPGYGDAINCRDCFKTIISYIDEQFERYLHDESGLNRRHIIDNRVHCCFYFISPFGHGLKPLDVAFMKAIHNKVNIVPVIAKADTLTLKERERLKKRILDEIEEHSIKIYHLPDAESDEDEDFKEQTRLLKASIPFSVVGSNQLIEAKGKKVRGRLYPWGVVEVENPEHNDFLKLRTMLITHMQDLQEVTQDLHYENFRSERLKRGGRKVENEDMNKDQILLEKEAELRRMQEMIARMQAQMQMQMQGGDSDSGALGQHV
Sequence of UniProt P52803 (whole entry, looked up): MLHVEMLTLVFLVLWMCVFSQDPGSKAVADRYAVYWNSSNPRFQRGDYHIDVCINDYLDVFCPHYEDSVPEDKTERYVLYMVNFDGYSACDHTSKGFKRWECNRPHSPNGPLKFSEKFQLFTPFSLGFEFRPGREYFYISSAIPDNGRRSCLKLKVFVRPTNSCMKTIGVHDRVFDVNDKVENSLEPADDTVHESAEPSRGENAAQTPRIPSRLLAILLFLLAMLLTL
Sequence of UniProt P01042 (whole entry, looked up): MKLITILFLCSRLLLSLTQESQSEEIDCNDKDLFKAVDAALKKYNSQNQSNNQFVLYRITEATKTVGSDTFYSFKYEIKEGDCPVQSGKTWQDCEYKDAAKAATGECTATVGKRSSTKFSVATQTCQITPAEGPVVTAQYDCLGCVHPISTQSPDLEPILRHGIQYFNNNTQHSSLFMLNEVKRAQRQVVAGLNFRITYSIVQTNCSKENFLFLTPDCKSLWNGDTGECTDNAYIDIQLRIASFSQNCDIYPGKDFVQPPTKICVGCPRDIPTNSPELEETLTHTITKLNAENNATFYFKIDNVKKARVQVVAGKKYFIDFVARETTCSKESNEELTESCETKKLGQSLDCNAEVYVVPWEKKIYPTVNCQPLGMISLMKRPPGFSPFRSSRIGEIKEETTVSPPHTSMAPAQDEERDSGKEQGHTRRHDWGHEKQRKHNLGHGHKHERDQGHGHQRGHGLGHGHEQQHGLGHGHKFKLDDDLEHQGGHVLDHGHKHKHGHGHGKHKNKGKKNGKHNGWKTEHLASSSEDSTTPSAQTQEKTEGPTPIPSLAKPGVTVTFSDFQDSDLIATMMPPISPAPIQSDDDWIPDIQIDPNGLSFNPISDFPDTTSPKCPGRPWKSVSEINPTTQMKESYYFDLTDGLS
Sequence of UniProt P30411 (whole entry, looked up): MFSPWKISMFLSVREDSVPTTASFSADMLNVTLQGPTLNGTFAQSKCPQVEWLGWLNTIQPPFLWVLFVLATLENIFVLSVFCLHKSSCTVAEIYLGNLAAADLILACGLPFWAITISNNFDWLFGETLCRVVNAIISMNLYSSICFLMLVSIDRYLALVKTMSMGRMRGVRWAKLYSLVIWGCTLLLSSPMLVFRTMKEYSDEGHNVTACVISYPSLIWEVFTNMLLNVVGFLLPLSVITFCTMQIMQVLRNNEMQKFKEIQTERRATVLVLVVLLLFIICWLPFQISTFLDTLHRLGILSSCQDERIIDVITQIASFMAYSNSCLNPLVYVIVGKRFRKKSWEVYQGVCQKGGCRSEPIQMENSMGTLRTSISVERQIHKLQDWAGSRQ

`B1` — result for “adsorbed ligand amount”: 0.009 ng mm^-2 (NOTCH1 full length, on cells (UniProt P46531); Notch1 reporter activation EC50; CHO-K1; 24 h).
The Kd of `UAUUUAUUG (ssRNA)` is reported as 7120 nM (U2AF2; sequencing of bound RNA; RNA; motif only).
For `JAZ2 fragment (Arabidopsis thaliana)`, the IC50 was 220 nM (NINJA 342-406 (Arabidopsis thaliana, UniProt Q9SV55); competitor, AlphaScreen or HTRF).
`ACTA1 (Gallus gallus, UniProt P68139)`: “detachment rate without load” 112 s⁻¹ (MYH1 (Oryctolagus cuniculus, UniProt A0A5F9CQ93); laser trap; with: ATP 100 µM).
Under “delay in median formation time”, `Mcm2-7, DyLight 650 on Mcm6 N-terminus (Saccharomyces cerevisiae)` is recorded as > 2 fold (ORC CDK-phosphorylated, Orc2 and Orc6 (Saccharomyces cerevisiae); FRET; relative to: unphosphorylated ORC, higher = longer delay).
`CAAATGTATGCACCATATCCATTCTAAACATAGTTTCAAGTCAATCGGTCC (dsDNA; 5'-amino-C6 primer)` gave a Kd of 3.37 ± 2 nM (SUA7 full length assumed (Saccharomyces cerevisiae, UniProt P29055); array; double-stranded DNA, one strand shown; TFIIB alone).
Under “molecule per partner”, `SEPTIN7 (Homo sapiens, UniProt Q16181)` is recorded as 1 (Septin2 (Mus musculus, UniProt P42208); co-sedimentation).
With `GLP-1/MC4 receptor agonist chimeric peptide, D-Ser position 2` the EC50 was 247 nM (MC5R (Homo sapiens, UniProt P33032); cAMP, agonist, HTRF; recombinant).
`ALB (Homo sapiens, UniProt P02768)` — result for cross-linked residues: “K219 to K290” (ZNF101 (Homo sapiens, UniProt Q8IZC7); cross-linking MS; with: DSSO).
With `bradykinin (UniProt P01042)` the EC50 was 0.182 nM (BDKRB2 (Homo sapiens, UniProt P30411); Gq BRET response; BDKRB2 cells).
`AUUUCUUUC (ssRNA)` gave a Kd of 310 nM (U2AF2; sequencing of bound RNA; RNA; motif only).
`EPHA2 fragment, auto-phosphorylated (Homo sapiens)` gave a kon of 24000 M⁻¹ s⁻¹ (EFNA5 (Homo sapiens, UniProt P52803); BLI; apparent).
Under “log2 fold change”, `Tropomyosin alpha-3 chain (human)` is recorded as 0.53 (PP6C (human); co-immunoprecipitation, IP-MS; CYB5R4 knockout cells; concentration not given; relative to: CYB5R4 knockout over parental).
The Ki of `B2 (TIMP2 27-153)` is reported as 13.7 ± 1.3 nM (MMP3 100-272 (Homo sapiens, UniProt P08254); enzyme activity, inhibitor, fluorogenic peptide cleavage assay).
For `ACPFGCMKNWSWPIWCTAK (Bicycle 73 bicyclic peptide; C-terminal amide/TATA scaffold, three cysteines cyclised)`, the Ki was 35.9 nM (NECTIN4 32-349 (Homo sapiens, UniProt Q96NY8); fluorescence polarisation; peptide).
`FGA (Homo sapiens, UniProt P02671)`: cross-linked residues “K437 to K119” (DIPK2B (Homo sapiens, UniProt Q9H7Y0); cross-linking MS; with: DSSO).
`B3 (human AIMP1)` — result for “log2 fold change”: -0.22 (CYB5R4 knockout human cells; PP4 interaction, 3xFLAG-PP4C IP-MS; concentration not given; relative to: CYB5R4 KO over parental).
`SNCA fragment` has a relative binding of 2 fold (S100B (Homo sapiens, UniProt P04271); pull-down; relative to: flowthrough, higher = more binding).
`FGB (Homo sapiens, UniProt P02675)` — result for cross-linked residues: “K353 to K672” (ULK2 (Homo sapiens, UniProt Q8IYT8); cross-linking MS; with: DSSO).
